Measurements collected from several papers.
Parts stem from different laboratories: compare values within a part only.
Sequence of UniProt Q12852 (whole entry, looked up): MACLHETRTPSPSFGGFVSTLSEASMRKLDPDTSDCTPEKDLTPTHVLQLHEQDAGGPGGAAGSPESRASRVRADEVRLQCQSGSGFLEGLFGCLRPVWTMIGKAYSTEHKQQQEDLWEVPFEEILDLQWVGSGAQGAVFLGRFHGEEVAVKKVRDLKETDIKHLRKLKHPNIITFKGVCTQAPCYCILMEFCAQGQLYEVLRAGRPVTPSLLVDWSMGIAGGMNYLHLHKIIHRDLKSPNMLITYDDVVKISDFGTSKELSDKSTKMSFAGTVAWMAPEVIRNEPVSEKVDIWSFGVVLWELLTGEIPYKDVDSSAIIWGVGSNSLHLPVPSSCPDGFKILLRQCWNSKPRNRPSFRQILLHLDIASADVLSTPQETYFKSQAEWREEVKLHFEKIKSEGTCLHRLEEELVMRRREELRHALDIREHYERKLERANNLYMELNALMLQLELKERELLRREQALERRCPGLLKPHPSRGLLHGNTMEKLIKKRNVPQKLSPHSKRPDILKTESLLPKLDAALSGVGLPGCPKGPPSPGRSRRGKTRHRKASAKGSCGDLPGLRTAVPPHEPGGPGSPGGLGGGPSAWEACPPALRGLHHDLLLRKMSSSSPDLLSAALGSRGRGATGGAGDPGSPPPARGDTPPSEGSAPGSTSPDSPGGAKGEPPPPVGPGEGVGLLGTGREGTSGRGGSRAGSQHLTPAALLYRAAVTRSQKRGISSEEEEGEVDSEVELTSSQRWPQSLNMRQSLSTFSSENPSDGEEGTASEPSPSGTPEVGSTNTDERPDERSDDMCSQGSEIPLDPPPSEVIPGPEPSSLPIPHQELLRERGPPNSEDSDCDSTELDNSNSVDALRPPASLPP
Sequence of UniProt P17948 (whole entry, looked up): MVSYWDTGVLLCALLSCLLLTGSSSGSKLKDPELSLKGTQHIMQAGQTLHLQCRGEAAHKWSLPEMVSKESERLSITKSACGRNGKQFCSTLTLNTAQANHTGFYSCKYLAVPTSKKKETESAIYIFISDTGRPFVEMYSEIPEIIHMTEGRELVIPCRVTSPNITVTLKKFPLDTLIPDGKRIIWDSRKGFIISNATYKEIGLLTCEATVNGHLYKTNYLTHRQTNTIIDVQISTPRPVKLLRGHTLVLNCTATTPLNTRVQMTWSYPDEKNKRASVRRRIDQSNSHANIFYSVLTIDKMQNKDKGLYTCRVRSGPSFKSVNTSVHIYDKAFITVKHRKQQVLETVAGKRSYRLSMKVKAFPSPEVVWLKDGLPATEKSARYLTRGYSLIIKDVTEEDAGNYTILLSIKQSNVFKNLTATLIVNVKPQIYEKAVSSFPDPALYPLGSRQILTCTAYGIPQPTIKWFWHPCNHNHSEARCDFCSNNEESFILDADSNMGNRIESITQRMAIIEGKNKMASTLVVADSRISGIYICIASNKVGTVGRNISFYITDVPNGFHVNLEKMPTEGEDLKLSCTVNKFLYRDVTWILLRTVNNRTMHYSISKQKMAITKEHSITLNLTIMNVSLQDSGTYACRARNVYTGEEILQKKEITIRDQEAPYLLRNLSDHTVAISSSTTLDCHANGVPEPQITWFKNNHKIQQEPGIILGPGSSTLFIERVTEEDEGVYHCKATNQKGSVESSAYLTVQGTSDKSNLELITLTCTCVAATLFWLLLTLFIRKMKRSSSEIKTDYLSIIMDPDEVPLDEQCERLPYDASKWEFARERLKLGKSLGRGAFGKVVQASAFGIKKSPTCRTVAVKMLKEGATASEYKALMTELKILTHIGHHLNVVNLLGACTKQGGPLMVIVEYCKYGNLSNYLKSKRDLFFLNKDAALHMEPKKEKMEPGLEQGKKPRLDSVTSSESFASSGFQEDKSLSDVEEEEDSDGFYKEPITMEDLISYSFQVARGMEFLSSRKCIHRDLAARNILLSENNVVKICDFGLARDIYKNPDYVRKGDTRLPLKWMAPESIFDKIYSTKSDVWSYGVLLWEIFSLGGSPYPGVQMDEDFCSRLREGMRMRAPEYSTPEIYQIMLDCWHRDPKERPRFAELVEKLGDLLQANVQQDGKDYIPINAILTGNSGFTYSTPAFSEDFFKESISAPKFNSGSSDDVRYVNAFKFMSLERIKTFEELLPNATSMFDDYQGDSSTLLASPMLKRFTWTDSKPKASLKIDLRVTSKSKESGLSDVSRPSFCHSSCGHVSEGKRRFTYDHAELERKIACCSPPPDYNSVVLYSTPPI
Sequence of UniProt Q56UN5 (whole entry, looked up): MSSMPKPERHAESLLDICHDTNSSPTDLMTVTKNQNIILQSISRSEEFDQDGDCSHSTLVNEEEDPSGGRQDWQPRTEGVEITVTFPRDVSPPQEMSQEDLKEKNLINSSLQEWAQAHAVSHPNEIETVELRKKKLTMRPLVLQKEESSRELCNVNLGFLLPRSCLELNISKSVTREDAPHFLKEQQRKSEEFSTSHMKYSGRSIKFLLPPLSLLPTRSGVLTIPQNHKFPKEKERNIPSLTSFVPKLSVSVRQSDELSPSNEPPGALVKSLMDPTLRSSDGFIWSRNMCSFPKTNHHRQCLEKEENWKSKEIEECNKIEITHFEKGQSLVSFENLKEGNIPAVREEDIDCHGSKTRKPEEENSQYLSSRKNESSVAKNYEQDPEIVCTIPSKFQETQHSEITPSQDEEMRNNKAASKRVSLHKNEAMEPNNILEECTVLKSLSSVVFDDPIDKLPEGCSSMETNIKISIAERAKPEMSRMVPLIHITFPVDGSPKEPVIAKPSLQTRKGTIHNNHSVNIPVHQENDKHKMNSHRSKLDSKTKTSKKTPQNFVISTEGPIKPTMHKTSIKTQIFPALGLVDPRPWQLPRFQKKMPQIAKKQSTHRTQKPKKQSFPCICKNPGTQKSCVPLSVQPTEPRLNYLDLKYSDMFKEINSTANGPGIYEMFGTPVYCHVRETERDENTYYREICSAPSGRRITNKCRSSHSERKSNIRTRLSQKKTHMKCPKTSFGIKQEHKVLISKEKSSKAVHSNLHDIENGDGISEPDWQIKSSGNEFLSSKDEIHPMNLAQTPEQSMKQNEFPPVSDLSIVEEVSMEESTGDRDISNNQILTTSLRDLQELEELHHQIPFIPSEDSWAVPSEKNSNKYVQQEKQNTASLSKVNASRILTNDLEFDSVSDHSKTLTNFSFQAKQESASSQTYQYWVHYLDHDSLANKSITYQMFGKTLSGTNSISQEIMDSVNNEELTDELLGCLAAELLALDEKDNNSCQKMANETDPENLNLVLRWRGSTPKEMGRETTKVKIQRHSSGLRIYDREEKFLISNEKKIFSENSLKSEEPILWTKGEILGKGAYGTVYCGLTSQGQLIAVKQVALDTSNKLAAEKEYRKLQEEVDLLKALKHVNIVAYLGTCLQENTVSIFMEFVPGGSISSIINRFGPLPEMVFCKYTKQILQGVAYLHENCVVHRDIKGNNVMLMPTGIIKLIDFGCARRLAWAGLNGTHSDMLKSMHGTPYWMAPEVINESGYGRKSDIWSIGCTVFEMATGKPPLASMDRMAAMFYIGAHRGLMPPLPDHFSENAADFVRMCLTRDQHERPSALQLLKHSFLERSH
Sequence of UniProt Q12866 (whole entry, looked up): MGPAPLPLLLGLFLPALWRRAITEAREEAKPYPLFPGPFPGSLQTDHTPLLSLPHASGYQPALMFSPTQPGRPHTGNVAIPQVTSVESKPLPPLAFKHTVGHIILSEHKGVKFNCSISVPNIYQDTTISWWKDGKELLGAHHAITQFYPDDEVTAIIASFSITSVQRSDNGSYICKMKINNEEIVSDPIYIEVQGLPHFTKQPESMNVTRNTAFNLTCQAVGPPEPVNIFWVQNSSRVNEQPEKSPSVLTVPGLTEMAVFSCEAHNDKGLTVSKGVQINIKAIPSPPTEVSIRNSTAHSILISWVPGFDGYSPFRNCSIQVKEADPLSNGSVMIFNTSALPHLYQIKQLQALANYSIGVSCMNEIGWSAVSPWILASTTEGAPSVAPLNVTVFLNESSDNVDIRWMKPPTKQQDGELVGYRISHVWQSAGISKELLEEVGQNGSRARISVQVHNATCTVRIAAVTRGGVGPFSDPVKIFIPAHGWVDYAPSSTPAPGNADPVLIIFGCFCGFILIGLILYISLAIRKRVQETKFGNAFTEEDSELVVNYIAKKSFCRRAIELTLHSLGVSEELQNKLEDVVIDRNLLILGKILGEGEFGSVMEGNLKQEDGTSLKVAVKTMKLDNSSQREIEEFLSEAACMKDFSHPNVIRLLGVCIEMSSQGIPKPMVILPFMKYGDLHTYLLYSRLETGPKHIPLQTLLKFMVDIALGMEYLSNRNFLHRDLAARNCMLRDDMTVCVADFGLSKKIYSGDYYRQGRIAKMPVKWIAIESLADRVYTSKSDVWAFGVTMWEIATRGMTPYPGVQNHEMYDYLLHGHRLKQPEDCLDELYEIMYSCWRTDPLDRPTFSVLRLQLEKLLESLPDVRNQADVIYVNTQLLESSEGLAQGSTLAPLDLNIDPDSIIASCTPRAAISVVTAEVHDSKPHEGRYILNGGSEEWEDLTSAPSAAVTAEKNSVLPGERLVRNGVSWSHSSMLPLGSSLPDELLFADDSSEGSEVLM

Series 1
Species: human
Sample: microsomes or S9
Tested at: 2 µM
Time: 0.5 h
The remaining compound of NC1=NN(c2ccc(Oc3ccccc3)c(S(=O)(=O)O)c2)C(=O)C1 is reported as > 100%.
With COC(=O)c1cc(O)c(=O)c2c(O)c(O)ccc2c1 the remaining compound was 38.9%.
For O=C(Nc1ccc2nc(N3CCC(N4CCCCC4)CC3)cc(C(=O)O)c2c1)c1ccccc1F, the remaining compound was > 100%.

Series 2
SMILES: COc1ccc2c(c1)O[C@H](c1ccc(OC)c(OC)c1)C[C@@H]2NC(=O)C1(c2ccc3c(c2)OC(F)(F)O3)CC1
Effect on: cell-free assay
Technique: competition with immobilised ligand
Tested at: 1 µM
MAP3K19 (Homo sapiens, UniProt Q56UN5) — remaining binding: 100%.
Tyrosine-protein kinase ABL1, non-phosphorylated (ABL1, Homo sapiens, UniProt P00519, H396P) — remaining binding: 100%.
MAP4K1 (Homo sapiens, UniProt Q92918) — remaining binding: 98%.
For FLT1 (Homo sapiens, UniProt P17948): remaining binding read 100%.
EIF2AK1 (Homo sapiens, UniProt Q9BQI3) — remaining binding: 100%.
The remaining binding was 87% (MAP3K12 (Homo sapiens, UniProt Q12852)).
It gave 98% for remaining binding (MERTK (Homo sapiens, UniProt Q12866)).
It gave 100% for remaining binding (Tyrosine-protein kinase ABL1, non-phosphorylated (ABL1, Homo sapiens, UniProt P00519, F317I)).

Series 3
Target: Prothrombin, mature alpha-thrombin (F2, Homo sapiens, UniProt P00734)
Technique: aptamer microarray, sandwich
Form: DNA with 2'F-ANA
Sample: in vitro
Tested at: 200 nM
Setting: whole 15-mer aptamer, many near background
With: Cy3 exosite-II aptamer, 400 nM
Reading: higher = stronger binding
Oligonucleotide: GGTTGGTGTGGTTGG
Under “mean fluorescence intensity”, `2'F-ANA at 1 2 3 4 5 6 7 8 9 10 12 13 14 15` is recorded as 52.2 a.u.
`2'F-ANA at 2 6 9 12 15` — result for “mean fluorescence intensity”: 601 a.u.
`2'F-ANA at 1 5 6 8 9 11 12`: “mean fluorescence intensity” 119 a.u.
For `2'F-ANA at 1 4 5 7 9 11 13 15`, “mean fluorescence intensity” read 48.6 a.u.
`2'F-ANA at 1 3 4 8 13 14 15` — result for “mean fluorescence intensity”: 80.1 a.u.
`2'F-ANA at 8 13` — result for “mean fluorescence intensity”: 548 a.u.
Under “mean fluorescence intensity”, `2'F-ANA at 1 3 4 5 6 11 15` is recorded as 51.3 a.u.
`2'F-ANA at 2 5 7 8 11 12 13 14 15` — result for “mean fluorescence intensity”: 53.2 a.u.

Series 4
Compound: CC(C)n1cnc(-c2ccc(F)cc2)c1-c1ncc(C(=O)Nc2ccc(N3CCN(C)CC3)cc2)[nH]1
Technique: phase 2a trial
For idiopathic pulmonary fibrosis patients; oral, 60 mg once daily, musculoskeletal disorders, grade 5: “patients with TEAE” read 0%.
It gave 0% for “patients with TEAE” (idiopathic pulmonary fibrosis patients; oral, 30 mg once daily, blood/lymphatic disorders, grade 4).
The “patients with TEAE” was 0% (patients with idiopathic pulmonary fibrosis; 30 mg once daily, endocrine disorders SOC, grade 1).

For quick reference, copied from above (series 3):
Under “mean fluorescence intensity”, `2'F-ANA at 1 2 3 4 5 6 7 8 9 10 12 13 14 15` is recorded as 52.2 a.u.
`2'F-ANA at 2 6 9 12 15` — result for “mean fluorescence intensity”: 601 a.u.
`2'F-ANA at 1 5 6 8 9 11 12`: “mean fluorescence intensity” 119 a.u.
For `2'F-ANA at 1 4 5 7 9 11 13 15`, “mean fluorescence intensity” read 48.6 a.u.
